{"data": "Experimental data of several laboratories", "B1": "IgG H:S99A; V domains shown; VH QVQLVQSGAEVKKPGASVKVSCKASGYTFTNYGLSWVRQAPGQGLEWMGWISANNGDTNYGQEFQGRVTMTTDTSTSTAYMELRSLRSDDTAVYYCARDSSSAWARWFFDLWGRGTLVTVSS; VL SYVLTQPPSVSVAPGKTARITCGGNIIGSKLVHWYQQKPGQAPVLVIYDDGDRPSGIPERFSGSNSGNTATLTISRVEAGDEADYYCQVWDTGSDPVVFGGGTKLTVL", "B2": "KPNB1 33-211 (Homo sapiens, UniProt Q14974); sequence looked up; chain LPTFLVELSRVLANPGNSQVARVAAGLQIKNSLTSKDPDIKAQYQQRWLAIDANARREVKNYVLQTLGTETYRPSSASQCVAGIACAEIPVNQWPELIPQLVANVTNPNSTEHMKESTLEAIGYICQDIDPEQLQDKSNEILTAIIQGMRKEEPSNNVKLAATNALLNSLEFTKANFDK", "B3": "Cacna1c 1647-1777 (Mus musculus, UniProt Q01815); sequence looked up; chain NALSLQAGLRTLHDIGPEIRRAISGDLTAEEELDKAMKEAVSAASEDDIFRRAGGLFGNHVTYYQSDSRGNFPQTFATQRPLHINKTGNNQADTESPSHEKLVDSTFTPSSYSSTGSNANINNANNTALGR", "B4": "sst2 catalytic domain 245-435 F403W (Schizosaccharomyces pombe, UniProt Q9P371); sequence looked up; chain AGTFKIHAYTEGGKPLRTIYLPKLLKKVFLDVVKPNTKKNLETCGILCGKLRQNAFFITHLVIPLQEATSDTCGTTDEASLFEFQDKHNLLTLGWIHTHPTQTCFMSSVDLHTHCSYQLMLPEAIAIVMAPSKNTSGIFRLLDPEGLQTIVKCRKPGLWHPHEGKVYTMVAQPGHVREINSKLQVVDLRVK", "B5": "PUX5 301-421 F395S (Arabidopsis thaliana, UniProt Q7Y175); chain KNPFQGVGRTLGASGSGSSSAPQASSAPMNVAPAPSRGLVVDPAAPTTSIQLRLADGTRLVSRFNNHHTVRDVRGFIDASRPGGSKEYQLLTMGSPPKQLTELDQTIEQAGIANAVVIQKF", "B6": "CFH 1108-1231 S1191L/V1197A (Homo sapiens, UniProt P08603); sequence looked up; chain KCGPPPPIDNGDITSFPLSVYAPASSVEYQCQNLYQLEGNKRITCRNGQWSEPPKCLHPCVISREIMENYNIALRWTAKQKLYLRTGESAEFVCKRGYRLSSRSHTLRTTCWDGKLEYPTCAKR", "B7": "RSPO4/IgG1 Fc RSPO4 32-137 Q65R/N297Q; CPT2 conjugated via azide click; chain GGNCTGCIICSEENGCSTCQQRLFLFIRREGIRRYGKCLHDCPPGYFGIRGQEVNRCKKCGATCESCFSQDFCIRCKRQFYLYKGKCLPTCPPGTLAHQNTRECQGGGGGSGGGGSGGGGS", "B8": "TEPSIN M474S/E475S/V477S (Homo sapiens, UniProt Q96N21); chain MAAAPPLRDRLSFLHRLPILLKGTSDDDVPCPGYLFEEIAKISHESPGSSQCLLEYLLSRLHSSSGHGKLKVLKILLYLCSHGSSFFLLILKRNSAFIQEAAAFAGPPDPLHGNSLYQKVRAAAQDLGSTLFSDTVLPLAPSQPLGTPPATGMGSQARPHSTLQGFGYSKEHGRTAVRHQPGQAGGGWDELDSGPSSQNSSQNSDLSRVSDSGSHSGSDSHSGASREPGDLAERVEVVALSDCQQELSLVRTVTRGPRAFLSREEAQHFIKACGLLNCEAVLQLLTCHLRGTSECTQLRALCAIASLGSSDLLPQEHILLRTRPWLQELSMGSPGPVTNKATKILRHFEASCGQLSPARGTSAEPGPTAALPGPSDLLTDAVPLPGSQVFLQPLSSTPVSSRSPAPSSGMPSSPVPTPPPDASPIPAPGDPSEAEARLAESRRWRPERIPGGTDSPKRGPSSCAWSRDSLFAGSSLSACPRLVGAGAAAGESCPDAPRAPQTSSQRTAAKEPPGSEPSAFAFLNA", "note": "Protocols differ between the studies behind these lines. “And” joins repeats or separate records; there may be more than shown. Numbers after ± are the reported error.", "UniProt P54609, sequence (whole entry, looked up)": "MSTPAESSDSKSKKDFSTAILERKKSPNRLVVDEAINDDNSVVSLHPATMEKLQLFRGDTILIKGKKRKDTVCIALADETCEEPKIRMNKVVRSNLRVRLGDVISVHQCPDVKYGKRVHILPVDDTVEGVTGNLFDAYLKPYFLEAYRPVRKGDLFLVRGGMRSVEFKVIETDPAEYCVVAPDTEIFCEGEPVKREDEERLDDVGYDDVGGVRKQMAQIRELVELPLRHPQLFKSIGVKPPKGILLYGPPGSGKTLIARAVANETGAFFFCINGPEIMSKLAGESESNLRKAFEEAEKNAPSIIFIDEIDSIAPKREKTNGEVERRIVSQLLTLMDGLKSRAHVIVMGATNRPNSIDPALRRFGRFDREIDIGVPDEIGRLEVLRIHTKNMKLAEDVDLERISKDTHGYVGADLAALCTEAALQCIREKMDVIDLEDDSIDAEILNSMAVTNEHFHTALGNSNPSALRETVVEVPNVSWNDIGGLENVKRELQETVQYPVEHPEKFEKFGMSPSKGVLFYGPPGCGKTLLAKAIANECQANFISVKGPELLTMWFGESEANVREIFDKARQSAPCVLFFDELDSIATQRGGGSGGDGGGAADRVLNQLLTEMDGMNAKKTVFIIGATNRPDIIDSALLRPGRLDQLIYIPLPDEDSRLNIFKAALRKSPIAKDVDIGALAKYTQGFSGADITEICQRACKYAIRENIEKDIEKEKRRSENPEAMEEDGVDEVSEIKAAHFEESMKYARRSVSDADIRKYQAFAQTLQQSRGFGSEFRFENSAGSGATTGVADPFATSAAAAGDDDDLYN", "UniProt P09429, sequence (whole entry, looked up)": "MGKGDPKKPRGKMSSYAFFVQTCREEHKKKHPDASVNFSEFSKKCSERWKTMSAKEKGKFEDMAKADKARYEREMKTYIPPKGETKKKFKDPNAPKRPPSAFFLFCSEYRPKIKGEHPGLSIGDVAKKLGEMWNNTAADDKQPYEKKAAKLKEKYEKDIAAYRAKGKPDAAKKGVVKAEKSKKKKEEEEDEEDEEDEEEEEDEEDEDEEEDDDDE", "UniProt P55072, sequence (whole entry, looked up)": "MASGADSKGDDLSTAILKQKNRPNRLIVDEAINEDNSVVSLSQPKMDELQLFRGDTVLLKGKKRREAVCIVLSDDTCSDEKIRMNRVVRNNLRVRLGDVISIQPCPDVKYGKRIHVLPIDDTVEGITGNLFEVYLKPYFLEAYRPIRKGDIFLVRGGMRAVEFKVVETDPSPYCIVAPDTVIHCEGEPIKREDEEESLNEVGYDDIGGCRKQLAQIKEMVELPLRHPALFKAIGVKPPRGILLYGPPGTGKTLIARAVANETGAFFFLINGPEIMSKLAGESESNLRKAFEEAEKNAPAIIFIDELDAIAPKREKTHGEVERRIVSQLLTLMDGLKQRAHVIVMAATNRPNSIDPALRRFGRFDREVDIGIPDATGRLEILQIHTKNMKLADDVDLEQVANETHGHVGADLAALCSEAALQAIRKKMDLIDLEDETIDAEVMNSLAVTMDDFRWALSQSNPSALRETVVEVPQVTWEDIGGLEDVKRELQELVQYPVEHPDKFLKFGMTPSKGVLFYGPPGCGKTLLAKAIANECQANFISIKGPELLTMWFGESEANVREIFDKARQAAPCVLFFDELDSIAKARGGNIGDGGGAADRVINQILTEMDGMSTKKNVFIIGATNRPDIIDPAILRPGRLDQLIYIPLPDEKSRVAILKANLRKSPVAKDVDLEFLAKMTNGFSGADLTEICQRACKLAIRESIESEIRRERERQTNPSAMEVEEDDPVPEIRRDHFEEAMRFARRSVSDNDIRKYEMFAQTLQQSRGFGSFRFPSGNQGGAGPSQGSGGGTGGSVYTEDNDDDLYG", "UniProt P01024, sequence (whole entry, looked up)": "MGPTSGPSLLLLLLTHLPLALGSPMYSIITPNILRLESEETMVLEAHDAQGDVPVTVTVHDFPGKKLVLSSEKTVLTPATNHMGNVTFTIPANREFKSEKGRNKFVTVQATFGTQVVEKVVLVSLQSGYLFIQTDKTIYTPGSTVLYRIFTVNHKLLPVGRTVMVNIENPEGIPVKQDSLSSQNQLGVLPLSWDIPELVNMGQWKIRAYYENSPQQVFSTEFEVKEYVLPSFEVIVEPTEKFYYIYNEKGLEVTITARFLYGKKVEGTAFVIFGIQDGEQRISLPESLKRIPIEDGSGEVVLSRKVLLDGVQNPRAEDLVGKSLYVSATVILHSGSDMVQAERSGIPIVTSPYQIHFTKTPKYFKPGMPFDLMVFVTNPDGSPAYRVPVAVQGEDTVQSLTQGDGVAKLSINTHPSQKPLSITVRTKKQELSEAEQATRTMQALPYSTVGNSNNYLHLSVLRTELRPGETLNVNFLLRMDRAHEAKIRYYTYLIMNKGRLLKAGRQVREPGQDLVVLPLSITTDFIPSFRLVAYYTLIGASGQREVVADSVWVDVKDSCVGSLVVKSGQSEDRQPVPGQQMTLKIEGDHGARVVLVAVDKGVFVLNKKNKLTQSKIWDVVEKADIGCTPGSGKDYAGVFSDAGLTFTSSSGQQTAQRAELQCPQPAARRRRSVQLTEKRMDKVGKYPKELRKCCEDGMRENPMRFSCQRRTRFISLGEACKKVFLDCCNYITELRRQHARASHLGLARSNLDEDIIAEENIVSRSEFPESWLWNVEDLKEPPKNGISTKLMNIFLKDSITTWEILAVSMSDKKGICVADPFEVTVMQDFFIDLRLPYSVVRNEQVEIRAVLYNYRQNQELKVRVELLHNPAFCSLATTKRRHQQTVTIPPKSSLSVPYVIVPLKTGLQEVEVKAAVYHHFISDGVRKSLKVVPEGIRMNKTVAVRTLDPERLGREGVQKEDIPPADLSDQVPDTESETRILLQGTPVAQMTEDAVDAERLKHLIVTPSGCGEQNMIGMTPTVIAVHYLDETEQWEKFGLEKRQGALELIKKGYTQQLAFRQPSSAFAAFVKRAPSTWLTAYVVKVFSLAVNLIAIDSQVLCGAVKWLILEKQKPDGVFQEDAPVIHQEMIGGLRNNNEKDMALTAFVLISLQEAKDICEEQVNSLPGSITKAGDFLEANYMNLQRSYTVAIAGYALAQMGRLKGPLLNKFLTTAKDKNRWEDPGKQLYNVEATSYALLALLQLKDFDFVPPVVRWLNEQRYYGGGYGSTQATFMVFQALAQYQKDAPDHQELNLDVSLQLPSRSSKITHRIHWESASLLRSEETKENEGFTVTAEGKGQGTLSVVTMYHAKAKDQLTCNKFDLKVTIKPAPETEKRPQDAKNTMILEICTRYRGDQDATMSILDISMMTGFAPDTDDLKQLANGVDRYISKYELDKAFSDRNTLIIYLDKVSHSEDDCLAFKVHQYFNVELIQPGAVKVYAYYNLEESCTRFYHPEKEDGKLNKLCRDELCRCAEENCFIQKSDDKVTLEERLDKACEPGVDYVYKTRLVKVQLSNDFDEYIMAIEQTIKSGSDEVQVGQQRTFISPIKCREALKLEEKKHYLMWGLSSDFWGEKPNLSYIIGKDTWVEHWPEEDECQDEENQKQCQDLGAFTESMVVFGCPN"}
{"Substance": "B1 (IgG H:S99A)", "target or system": "IL13 fragment (Homo sapiens)", "test": "SPR", "test system": "antibody", "measurement": "Kd", "value": "5.7e-05 µM"}
{"Substance": "B2 (KPNB1 33-211)", "target or system": "VCP (Homo sapiens, UniProt P55072)", "test": "BLI", "measurement": "Kd", "value": "0.00643 µM"}
{"Substance": "B3 (Cacna1c 1647-1777)", "target or system": "Jph2 1-440 S165R (Mus musculus, UniProt Q9ET78)", "test": "ITC", "measurement": "Kd", "value": "5.83 µM"}
{"Substance": "B4", "target or system": "UBB mature (UniProt P0CG47)", "test": "ITC", "measurement": "Kd", "value": "3.6 ± 0.3 µM"}
{"Substance": "GSGAGKETEC", "target or system": "human MAGI1-3/6 PDZ construct (MBP fusion)", "test": "automated holdup", "test system": "peptide, crude extract", "conditions": "concentration not given, uncorrected, unit not given", "how to read": "reference: biotin control resin, higher = stronger binding", "measurement": "binding intensity", "value": -0.0753}
{"Substance": "SCN2A IQ region (Homo sapiens) (sequence not shown)", "target or system": "CALM1 (Homo sapiens, UniProt P0DP23)", "test": "fluorescence titration", "conditions": "added: CaCl2", "measurement": "Kd", "value": "0.0063 µM"}
{"Substance": "GSGAGICTIV", "target or system": "human SCRIB PDZ3-4 tandem (MBP fusion)", "test": "automated holdup", "test system": "peptide, crude extract", "conditions": "concentration not given, corrected by standard peak, unit not given", "how to read": "reference: biotin control resin, higher = stronger binding", "measurement": "binding intensity", "value": 0.425}
{"Substance": "petF ferredoxin (Synechocystis sp. PCC 6803, UniProt P27320)", "target or system": "narB D163N (Synechococcus sp. PCC 7942)", "test": "UV-visible difference titration", "measurement": "Kd", "value": "20.7 ± 11.3 µM"}
{"Substance": "B5 (PUX5 301-421 F395S)", "target or system": "CDC48A 1-463 (Arabidopsis thaliana, UniProt P54609)", "test": "ITC", "conditions": "25 °C", "measurement": "Kd", "value": "3.2 ± 0.2 µM"}
{"Substance": "B6 (CFH 1108-1231 S1191L/V1197A)", "target or system": "C3 C3dg 955-1303 (Homo sapiens, UniProt P01024)", "test": "SPR", "measurement": "Kd", "value": "1.9 ± 0.2 µM"}
{"Substance": "GSGVTQTTKCCYSLEFHQ (designed peptide)", "target or system": "ERBB2 23-652 (Homo sapiens, UniProt P04626)", "test": "ELISA", "test system": "peptide", "measurement": "Kd", "value": "1.6 ± 0.4 µM"}
{"Substance": "B7", "target or system": "LGR6 (Homo sapiens, UniProt Q9HBX8)", "test": "whole-cell binding saturation", "test system": "Fc fusion, HEK293T", "measurement": "Kd", "value": "0.002 µM"}
{"Substance": "HMGB1 (Homo sapiens, UniProt P09429)", "target or system": "TLR4/LY96 complex (Homo sapiens)", "test": "SPR", "measurement": "Kd", "value": "0.299 µM"}
{"Substance": "WWP2 C506A/C822S/C802S/C750S/C666S/C588S/C577S, N-terminal Cy5 label (Homo sapiens) (sequence not shown)", "target or system": "UBE2D2 (Homo sapiens, UniProt P62837)", "test": "MST", "measurement": "Kd", "value": "38.3 ± 3.2 µM"}
{"Substance": "B8 (TEPSIN M474S/E475S/V477S)", "target or system": "MAP1LC3B fragment (Homo sapiens)", "test": "BLI", "measurement": "Kd", "value": "5.89 µM and 7.66 µM and 6.2 µM and 5.04 µM"}
{"Substance": "PALLD Ig3-Ig4 tandem del4 linker residues", "target or system": "ACTA1 F-actin (Oryctolagus cuniculus, UniProt P68135)", "test": "co-sedimentation", "measurement": "Kd", "value": "4.4 ± 1.4 µM"}
{"Substance": "ENAH EVH1 domain (Homo sapiens)", "target or system": "DVL1 peptide (Homo sapiens)", "test": "BLI", "measurement": "Kd", "value": "> 150 µM"}
{"note": "Repeated from above:"}
{"Substance": "petF ferredoxin (Synechocystis sp. PCC 6803, UniProt P27320)", "target or system": "narB D163N (Synechococcus sp. PCC 7942)", "test": "UV-visible difference titration", "measurement": "Kd", "value": "20.7 ± 11.3 µM"}
